Results collected from several papers.
Lines come from different studies, so protocols differ. “And” joins repeats or separate records; there may be more than shown. ± marks the error that the study gave.

Molecule	test	system	setting	measurement	result
CC(C)C[C@@H](NC(=O)[C@@H](CC(C)C)NC(=O)[C@@H](CC(=O)O)NC(=O)[C@@H](CC(C)C)NC(=O)[C@@H](CC(C)C)NC(=O)[C@@H](CC(C)C)NC(=O)[C@H](NC(=O)[C@@H](CC(=O)O)NC(=O)[C@H](NC(=O)[C@H]1CCCN1C(=O)[C@@H](Cc1ccccc1)NC(=O)[C@@H](CC(C)C)NC(=O)[C@@H](CC(C)C)NC(=O)[C@@H](CC(=O)O)NC(=O)[C@@H](CC(C)C)NC(=O)[C@@H](Cc1ccc(O)cc1)NC(=O)[C@@H](C)NC(=O)[C@@H](CCCNC(=N)N)NC(=O)[C@@H](Cc1c[nH]c2ccccc12)NC(=O)[C@H]1CCCN1C(=O)[C@@H](CC(N)=O)NC(=O)[C@@H](CCC(N)=O)NC(=O)[C@@H](CC(=O)O)NC(=O)[C@@H](CC(=O)O)NC(=O)[C@@H](CSC1CC(=O)N(CCNC(=O)CN2CCN(CC(=O)O)CCN(CC(=O)O)CC2)C1=O)NC(=O)[C@@H](C)N)[C@H](C)O)[C@H](C)O)C(=O)N[C@H](Cc1c[nH]c2ccccc12)C(=O)O (some centres unmarked) [fluorine-18 labelled]	–	male nude mice, LNCaP xenograft, tumor	intravenous, 1 h	tissue uptake	3.04 %ID/g
CCCC[C@H](NC(=O)CCCCCCCNC(=O)CN1CCN(CC(=O)O)CCN(CC(=O)O)CC1)C(=O)N[C@H]1CC(=O)NCCCC[C@@H](C(N)=O)NC(=O)[C@H](Cc2c[nH]c3ccccc23)NC(=O)[C@H](CCCNC(=N)N)NC(=O)[C@@H](Cc2ccccc2)NC(=O)[C@H](Cc2c[nH]cn2)NC1=O [technetium-99m labelled]	–	C57 mouse, kidneys	intravenous, 0.037 MBq, 2 h	tissue uptake	1.32 ± 0.92 %ID/g
C[C@@H](O)[C@@H]1NC(=O)[C@H](CCCCN)NC(=O)[C@@H](Cc2c[nH]c3ccccc23)NC(=O)[C@H](Cc2ccc(O)cc2)NC(=O)[C@@H](NC(=O)[C@@H](Cc2ccccc2)NC(=O)CN2CCN(CC(=O)O)CCN(C(=O)CCNC(=O)c3ncn4c(=O)n(C)nnc34)CCN(CC(=O)O)CC2)CSSC[C@@H](C(=O)N[C@H](CO)[C@@H](C)O)NC1=O [gallium-68 labelled]	ex vivo gamma counting	mouse, NCI-H69 xenograft, NCI-H69 tumour	intravenous, 2 nmol, 1 h	tumour uptake	3.68 ± 0.88 %ID/g
nucleophosmin S112E	far-UV CD, CDSSTR	Tris buffer, NaCl	pH 7.5, room temperature	alpha-helix content	16%
CC(C)C[C@H](NC(=O)[C@H](Cc1ccc(O)cc1)NC(=O)[C@@H](CCCNC(=N)N)NC(=O)[C@@H](CO)NC(=O)[C@H](Cc1ccccc1)NC(=O)[C@H](CC1CCCCC1)NC(=O)[C@H](CC(=O)O)NC(=O)CN1CCN(CC(=O)O)CCN(CC(=O)O)CCN(CC(=O)O)CC1)C(=O)N[C@@H](Cc1c[nH]c2ccccc12)C(=O)N[C@@H](CO)C(=O)O [copper-64 labelled]	–	human, small intestine	concentration not given, 3 h	activity concentration	4280 Bq/mL and 1290 Bq/mL and 2430 Bq/mL and 2380 Bq/mL and 3410 Bq/mL and 2450 Bq/mL
C=C1CC[C@H](OCCCNC(=O)CCOCCOCCOCCOCCOCCOCCOCCOCCOCCOCCOCCOCCOCCOCCOCCOCCOCCOCCOCCOCCOCCOCCOCCOCCOCCOCCOCCOCCOCCOCCOCCOCCOCCOCCOCCOCCNC(=O)CCN2C(=O)CC(SC[C@H](NC(=O)[C@H](Cc3ccccc3)NC(=O)[C@H](CC(N)=O)NC(=O)[C@H](Cc3c[nH]cn3)NC(=O)[C@@H](NC(=O)[C@H](CC(=O)O)NC(=O)[C@H](CCC(N)=O)NC(=O)[C@H](CC(C)C)NC(=O)[C@H](CCCCN)NC(=O)[C@H](CCCCN)NC(=O)[C@H](CCCNC(=N)N)NC(=O)[C@H](CC(C)C)NC(=O)[C@H](Cc3c[nH]c4ccccc34)NC(=O)[C@H](CCC(=O)O)NC(=O)[C@@H](NC(=O)[C@H](CCCNC(=N)N)NC(=O)[C@H](CCC(=O)O)NC(=O)[C@H](CCSC)NC(=O)[C@H](CO)NC(=O)[C@H](CC(N)=O)NC(=O)[C@H](CC(C)C)NC(=O)[C@H](Cc3c[nH]cn3)NC(=O)[C@H](CCCCN)NC(=O)CNC(=O)[C@H](CC(C)C)NC(=O)[C@H](CC(N)=O)NC(=O)[C@H](Cc3c[nH]cn3)NC(=O)[C@H](CCSC)NC(=O)[C@H](CC(C)C)NC(=O)[C@H](CCC(N)=O)NC(=O)[C@@H](NC(=O)[C@H](CCC(=O)O)NC(=O)[C@H](CO)NC(=O)[C@@H](NC(=O)[C@@H](N)CO)C(C)C)[C@@H](C)CC)C(C)C)C(C)C)C(=O)O)C2=O)C/C1=C/C=C1\CCC[C@]2(C)[C@@H]([C@H](C)CCCC(C)(C)O)CC[C@@H]12 (some centres unmarked)	–	cynomolgus monkey male	sc, 0.07 mg/kg single	clearance	0.121 mL/min/kg
CC(C)C[C@H](NC(=O)[C@@H](CCCCNC(=O)[C@@H](Cc1ccccc1)NC(=O)CCCCCNC(=O)CN1CCN(CC(=O)O)CCN(CC(=O)O)CCN(CC(=O)O)CC1)NC(=O)[C@H](Cc1ccc(O)cc1)NC(=O)[C@H](CO)NC(=O)[C@H](Cc1c[nH]c2ccccc12)NC(=O)[C@H](Cc1c[nH]cn1)NC(=O)[C@@H]1CCC(=O)N1)C(=O)N[C@@H](CCCNC(=N)N)C(=O)N1CCC[C@H]1C(=O)NCC(N)=O [indium-111 labelled]	–	female athymic nude mice, bone	intravenous, 0.037 MBq, 4 h	tissue uptake	0.07 ± 0.05 %ID/g
CCCC[C@H](NC(=O)COCCOCCNC(=O)CN1CCN(CC(=O)O)CCN(CC(=O)O)CC1)C(=O)N[C@H]1CC(=O)NCCCC[C@@H](C(N)=O)NC(=O)[C@H](Cc2c[nH]c3ccccc23)NC(=O)[C@H](CCCNC(=N)N)NC(=O)[C@@H](Cc2ccccc2)NC(=O)[C@H](Cc2c[nH]cn2)NC1=O [technetium-99m labelled]	–	C57 mouse, skin	intravenous, 0.037 MBq, 0.5 h	tissue uptake	3.73 ± 1.16 %ID/g

For quick reference, copied from above:
Molecule	test	system	setting	measurement	result
CC(C)C[C@H](NC(=O)[C@@H](CCCCNC(=O)[C@@H](Cc1ccccc1)NC(=O)CCCCCNC(=O)CN1CCN(CC(=O)O)CCN(CC(=O)O)CCN(CC(=O)O)CC1)NC(=O)[C@H](Cc1ccc(O)cc1)NC(=O)[C@H](CO)NC(=O)[C@H](Cc1c[nH]c2ccccc12)NC(=O)[C@H](Cc1c[nH]cn1)NC(=O)[C@@H]1CCC(=O)N1)C(=O)N[C@@H](CCCNC(=N)N)C(=O)N1CCC[C@H]1C(=O)NCC(N)=O [indium-111 labelled]	–	female athymic nude mice, bone	intravenous, 0.037 MBq, 4 h	tissue uptake	0.07 ± 0.05 %ID/g
